Results of several laboratories.
Lines come from different studies, so protocols differ. ± marks the error that the study gave. Converted amounts (≈) assume the structure as drawn.
DCPS: m7GpppX diphosphatase (DCPS, Homo sapiens, UniProt Q96C86)
ALB: Albumin (ALB, Bos taurus, UniProt P02769)
T1: FMN riboswitch G8A/G9A/G74A/G96A (Lactobacillus plantarum); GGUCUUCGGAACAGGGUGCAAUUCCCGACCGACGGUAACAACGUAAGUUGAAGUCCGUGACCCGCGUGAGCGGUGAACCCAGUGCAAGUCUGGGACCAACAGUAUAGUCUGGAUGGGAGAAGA

SMILES	target	assay	system	conditions	scale	endpoint	result
CC(=O)N[C@H](CCCNC(=N)N)C(=O)N[C@@H](Cc1ccc(O)cc1)C(=O)N[C@@H](CCCNC(=N)NC(=O)NCCCCN)C(=O)N[C@@H](CC(C)C)C(=O)N[C@@H](CCCNC(=N)N)C(=O)N[C@@H](Cc1ccc(O)cc1)C(N)=O	Neuropeptide Y receptor type 4 (NPY4R, Homo sapiens, UniProt P50391)	calcium mobilization, agonist, aequorin	CHO-hY4-Gqi5-mtAEQ	concentration not given, unit not given	relative to: 1 µM human pancreatic polypeptide	intrinsic activity	0.63
CC(C)[C@H](NC(=O)[C@H](CCCNC(=N)N)NC(=O)[C@@H](NC(=O)[C@H](CCC(N)=O)NC(=O)[C@H](CCC(N)=O)NC(=O)[C@@H](NC(=O)[C@H](Cc1c[nH]c2ccccc12)NC(=O)[C@@H]1CCCN1C(=O)[C@@H]1CCCN1C(=O)[C@H](Cc1ccc(N)cc1)NC(=O)[C@H](CO)NC(=O)CNC(=O)[C@H](CCCNC(=N)N)NC(=O)[C@H](CCCNC(=N)N)NC(=O)[C@H](CCCNC(=N)N)NC(=O)[C@H](CCCNC(=N)N)NC(=O)[C@H](CCCNC(=N)N)NC(=O)[C@@H](N)CCCNC(=N)N)C(C)C)[C@@H](C)O)C(=O)O	Disks large homolog 4, PDZ3 domain (Homo sapiens, UniProt P78352)	binding, surface plasmon resonance	–	pH 7.5, 25 °C	–	kon	153000 M⁻¹ s⁻¹
CCCCCCOc1ccc(C(=O)OCCN2CC=CCC2)cc1	Muscarinic acetylcholine receptor M4 (CHRM4, Homo sapiens, UniProt P08173)	antagonist, measured: inositol phosphates	CHO co-expressing G15	with: carbachol	–	cooperativity factor	0.001 ± 0.0002
Cc1ccccc1-c1cc(N2CCN(C)CC2)ccc1N(C)C(=O)C(C)(C)c1cc(C(F)(F)F)cc(C(F)(F)F)c1	Substance-P receptor (TACR1, Homo sapiens, UniProt P25103)	antagonist, BRET	HEK293T	10 µM, with: substance P, added 5 min before	–	inhibition rate constant	0.23 ± 0.04 min⁻¹
O=C1C=CC(=O)N1c1ccccc1	P2X purinoceptor 3 (P2rx3, Rattus norvegicus, UniProt P49654, V238C)	ion current, covalent modifier, patch clamp	–	0.5 mM, 2 min, with: ATP	–	ATP-evoked current	decreased
CO[C@@H]1[C@H](O)[C@@H](COP(=O)(O)OP(=O)([O-])C(Cl)(Cl)P(=O)(O)OP(=O)(O)OC[C@H]2O[C@@H](n3cnc4c(=O)[nH]c(N)nc43)[C@H](O)[C@@H]2O)O[C@H]1n1c[n+](C)c2c(O)nc(N)nc21	DCPS	substrate, HPLC	–	0.04 mM, 60 min, 37 °C	–	hydrolysis	0%
CCc1cc(C)nc2c(CC(=O)N(CC)CC)c(-c3ccc(OCC[18F])cc3)nn12	Translocator protein (Tspo, Rattus norvegicus, UniProt P16257)	two-tissue compartment model	rat C6 glioma model, tumor	60 min dynamic PET	–	k3 rate constant	0.565 ± 0.075 min⁻¹
C[n+]1cn(C2OC(COP(=O)([O-])OP(=O)(O)OP(=O)(O)OCC3OC(n4cnc5c(=O)[nH]c(N)nc54)C(O)C3O)C(O)C2O)c2nc(NCc3cc(-c4ccccc4)no3)[nH]c(=O)c21 (centres unmarked)	NUDT16 (Homo sapiens, UniProt Q96DE0)	decapping, substrate	capped RNA transcribed by SP6 polymerase	concentration not given, 30 min	–	cap hydrolysis	33.2%
Oc1c(C(Nc2nc3ccccc3s2)c2cccc(OCc3ccccc3)c2)ccc2cccnc12 (centres unmarked)	Genome polyprotein, NS2B-NS3 protease (Dengue virus type 2, UniProt P14340)	substrate, tetrapeptide cleavage	–	1 µM, 37 °C, without ZnCl2	–	kcat	0.0952 ± 0.0032 s⁻¹
Cc1cc2nc3c(=O)[nH]c(=O)nc-3n(CCO)c2cc1C	T1, FMN riboswitch G8A/G9A/G74A/G96A (Lactobacillus plantarum)	ITC	–	pH 7.5, 25 °C, NaCl 100 mM	–	Kd	54 nM
O=C(Nc1ccc(C(=O)Nc2ccc(C(=O)Nc3ccc(S(=O)(=O)O)c4cc(S(=O)(=O)O)cc(S(=O)(=O)O)c34)cc2)cc1)Nc1ccc(C(=O)Nc2ccc(C(=O)Nc3ccc(S(=O)(=O)O)c4cc(S(=O)(=O)O)cc(S(=O)(=O)O)c34)cc2)cc1	Coagulation factor X (F10, Homo sapiens, UniProt P00742)	enzyme activity, inhibitor, FXa chromogenic substrate hydrolysis	–	pH 7.4, 25–37 °C	–	Hill slope	1.8 ± 1
CNc1ccccc1C(=O)O[C@H]1C[C@H](n2cnc3c(N)ncnc32)O[C@@H]1COP(=O)(O)OP(=O)(O)O	Unconventional myosin-Va (Gallus gallus, UniProt Q02440, D297C/G292C/I296C/S293C/V295G)	stopped-flow FRET	–	4 °C, with: MgCl2 2 mM	–	pocket reverse rate constant	0.51 ± 0.34 s⁻¹
CC1(C)CCN(Cc2ccc(C(=O)NC[C@]3(O)CCCN(c4cc(NCc5ccccc5)ncn4)C3)c(O)c2)CC1	Tyrosine-protein kinase ABL1 (ABL1, Homo sapiens, UniProt P00519)	kinase activity, radiometric	–	10 µM, with: 10 µM ATP	–	remaining activity	74%
[123I]c1ccc2nc(-c3ccc(-n4ccnn4)nc3)cn2c1	Amyloid-beta precursor protein, amyloid-beta (APP, Homo sapiens, UniProt P05067)	SPECT	healthy controls, Occipital cortex	120 to 210 min	relative to: cerebellum	SUVR	0.83 ± 0.1
O=C([O-])CN(CCN(CC(=O)[O-])Cc1cc(CCC(=O)NCCCCCC(=O)NCCCC[C@H](NC(=O)N[C@@H](CCC(=O)O)C(=O)O)C(=O)O)ccc1O)Cc1cc(CCC(=O)O)ccc1[O-].[68Ga+3]	Glutamate carboxypeptidase 2 (FOLH1, Homo sapiens, UniProt Q04609)	PET/CT	human, liver metastasis	–	relative to: normal liver	tumour-to-background ratio	2
BP(=O)(OC[C@H]1O[C@@H](n2c[n+](C)c3c(O)nc(N)nc32)[C@H](O)[C@@H]1O)OP(=O)([O-])OP(=O)(O)OC[C@H]1O[C@@H](n2cnc3c(=O)[nH]c(N)nc32)[C@H](O)[C@@H]1O (some centres unmarked)	DCPS	binding, fluorescence quenching titration	–	pH 7.6, 20.0 °C	–	association constant	77.4 ± 5.4 µM⁻¹
CNC(=O)C(NC(=O)C1CN(C(=O)c2cnn(Cc3ccccc3)c2)CC12CN(C(=O)C1CC1(C)C)C2)C(C)OCCC1CCCCC1 (centres unmarked)	human cyclin E1 N112C:CDK2-NanoLuc	NanoBRET	HEK293T cell lysate	orthosteric site, with: tracer K-10 0.2 µM	–	tracer displacement	no effect
NC(=O)CN1C(=O)C(O)(CC(=O)c2cccc(N)c2)c2ccccc21 (centres unmarked)	uncharacterized protein (Leishmania donovani, UniProt A0A3Q8IA09)	Tyr fluorescence thermal shift	–	100 µM	–	melting temperature	65.1 °C

SMILES	target	assay	system	conditions	scale	endpoint	result
O=C(NCC1CO1)Oc1ccc([N+](=O)[O-])cc1 (racemic)	Epoxide hydrolase 1 (EPHX1, Homo sapiens, UniProt P07099)	enzyme activity, substrate	–	50 µM, pH 9.0, 37 °C, human enzyme	–	specific activity	< 2 nmol/min/mg
COc1cc(C(=O)NC2CCC(N3CCN(CC4CCC5(CCCC5)C4)CC3)CC2)c(F)cc1Nc1ncc2c(n1)N(C1CCCC1(F)F)CC(F)(F)C(=O)N2C (centres unmarked)	Insulin receptor (INSR, Homo sapiens, UniProt P06213)	cell-free assay, TR-FRET	–	10 µM	–	inhibition	0.15%
Nc1nc(SCCc2ccc(S(=O)(=O)O)cc2)nc2c1ncn2C1OC(CO)C(O)C1O (centres unmarked)	adenosine A2A receptor, human, C-terminal truncation	–	–	concentration not given, 298 K	relative to: truncated over wild type	ΔΔG binding	0.9 kcal/mol
CCCCCCCCCCCCCCCC(=O)Nc1ccccc1SSc1ccccc1NC(=O)CCCCCCCCCCCCCCC	ALB	binding, fluorescence quenching	–	298 K	–	Gibbs free energy change	-3.87 kcal/mol
O=P(O)(O)O[C@@H]1[C@@H](O)[C@@H](O[C@@H]2COC[C@@H]2OP(=O)(O)O)O[C@H](CO)[C@H]1OP(=O)(O)O	Inositol 1,4,5-trisphosphate-gated calcium channel ITPR1, N-terminal region (Itpr1, Rattus norvegicus, UniProt P29994, del318-332/R504Q)	[3H]IP3 competition binding	N-terminal fragment	concentration not given, Tris-EDTA medium	relative to: R504Q over wild type	affinity reduction	44 fold
COC(=O)c1cc2cc3c(cc2oc1=O)N(CC(=O)NC(Cc1ccc(C)cc1)C(=O)NCC=CS(=O)(=O)c1ccccc1)CCC3 (centres unmarked)	Rhodesain (rhodesain, Trypanosoma brucei rhodesiense, UniProt Q95PM0)	enzyme activity, irreversible inhibitor	–	60 min, pH 5.5, 37 °C, with: Z-Phe-Arg-AMC	–	kinact/Ki	16100 M⁻¹ s⁻¹
CCCCCCCCCCCCCCCC(=O)NC[C@H](NC(=O)CNC(=O)CCNc1ccc([N+](=O)[O-])c2nonc12)C(=O)N[C@H](C(=O)N[C@@H](CCCCN)C(=O)N[C@H](C(=O)N[C@@H](CCCCN)C(=O)N[C@@H](CCCCN)C(=O)O)[C@@H](C)CC)C(C)C	Palmitoyl-protein thioesterase 1, T75P/R151X (Homo sapiens, UniProt P50897, T75P)	chaperone	patient lymphoblasts T75P/R151X	concentration not given	relative to: untreated	enzyme activity	2 fold
O=C(O)C(COP(=O)(O)O)OP(=O)(O)O (centres unmarked)	Phosphoglycerate mutase 1 (Homo sapiens, UniProt P18669)	histidine phosphorylation, phosphate donor, immunoblotting	–	–	–	effective concentration	0.01 mM
CC(=O)N[C@@H](CC(=O)O)C(=O)N[C@@H](CCC(=O)O)C(=O)N[C@H](C(=O)N[C@@H](CC(=O)O)C(=O)Nc1ccc2c(C)cc(=O)oc2c1)C(C)C	Caspase-8 (CASP8, Homo sapiens, UniProt Q14790)	substrate cleavage, substrate, fluorogenic AMC release	–	enzyme 0.25 activity units/µL	–	Vmax	218 ± 2.74 RFU/min
COC(=O)c1cnc(-c2cnccn2)cc1C(=O)OC.COC(=O)c1cnc(-c2cnccn2)cc1C(=O)OC.O.O.O.O=S(=O)([O-])C(F)(F)F.O=S(=O)([O-])C(F)(F)F.[Cu+2]	ALB	fluorescence quenching	–	pH 7.4, BSA 5 µM	–	Stern-Volmer constant	228000 ± 6000 M⁻¹
CC(C)[C@H](NC(=O)[C@@H]1CCC(=O)NCCC(=O)NCCCC[C@H](NC(=O)[C@H](CCCCN)NC(=O)[C@H](Cc2ccc(O)cc2)NC(=O)[C@H](CC(N)=O)NC(=O)[C@H](CCCCN)NC(=O)[C@@H](N)CS)C(=O)N[C@@H]([C@@H](C)O)C(=O)N1)C(=O)O	Disks large homolog 4 (Homo sapiens, UniProt P78352)	binding, SPR	–	pH 7.5	–	kon	76000 M⁻¹ s⁻¹
CC(=O)[O-].O.O.[O-]c1ccc(Br)cc1C=NCCN1CCOCC1.[Zn+2]	ALB	UV absorption titration	–	concentration not given, pH 7.2, 25 °C	–	hyperchromism	48.2%
NS(=O)(=O)c1ccc(-n2nc(C(F)(F)F)cc2-c2ccc(F)cc2F)cc1	Cyclooxygenase-2 (Canis lupus familiaris, UniProt Q8SPQ9)	PGE2 formation, inhibitor	dog whole blood	with: LPS	–	IC80	5.4 µg/mL (≈ 13.4 µM)
CC(=O)N[C@@H](CC(N)=O)C(=O)N[C@@H](CCCNC(=N)N)C(=O)N[C@@H](CCCNC(=N)N)C(=O)N[C@@H](CC(N)=O)C(=O)N[C@H](C(=O)N[C@@H](C)C(=O)N[C@@H](CC(N)=O)C(=O)N[C@@H](CCN1C(=O)c2ccc(N(C)C)cc2C1=O)C(=O)N[C@@H](CCCNC(=N)N)C(=O)N[C@H](C(=O)N[C@@H](CCCNC(=N)N)C(=O)N1CCC[C@H]1C(=O)N[C@@H](CCCNC(=N)N)C(=O)O)[C@@H](C)O)[C@@H](C)O	Disks large homolog 4, PDZ1-2 domains (Homo sapiens, UniProt P78352)	PDZ domain binding, fluorescence emission intensity	PSD-95 PDZ1-2 tandem construct	4-DMAP-Dab at position -5	relative to: probe without PDZ domain	relative fluorescence increase	1.7
O=C(OC1Cc2c(O)cc(O)cc2OC1c1cc(O)c(O)c(O)c1)c1cc(O)c(O)c(O)c1 (single isomer, unassigned; (-))	Xanthine dehydrogenase/oxidase (XDH, Bos taurus, UniProt P80457)	fluorescence quenching	–	concentration not given, 25 °C	–	number of binding sites	1.03
C[C@@H](O)[C@H](NC(=O)OP(=O)(O)OC[C@H]1O[C@@H](n2cnc3c(N)ncnc32)[C@H](O)[C@@H]1O)C(=O)O	tsaD, with TsaB and TsaE (Escherichia coli, UniProt P05852)	substrate	–	–	–	kcat	0.00517 ± 0.000333 s⁻¹
Cc1cc(NC(=O)c2cccc(NC(=O)/C(C#N)=C/C(C)(C)C)c2)ccc1Nc1nccc(-c2cccnc2)n1	Mitogen-activated protein kinase 8 (MAPK8, Homo sapiens, UniProt P45983)	surface plasmon resonance, two-step model	–	–	–	rate constant k4	0.00035 s⁻¹
